Published values of several laboratories.
A part holds a random share of what one study measured. Values joined by “and” are separate records of one study, mostly repeats; a detail may differ.
Chain of UniProt P36897 (whole entry, looked up): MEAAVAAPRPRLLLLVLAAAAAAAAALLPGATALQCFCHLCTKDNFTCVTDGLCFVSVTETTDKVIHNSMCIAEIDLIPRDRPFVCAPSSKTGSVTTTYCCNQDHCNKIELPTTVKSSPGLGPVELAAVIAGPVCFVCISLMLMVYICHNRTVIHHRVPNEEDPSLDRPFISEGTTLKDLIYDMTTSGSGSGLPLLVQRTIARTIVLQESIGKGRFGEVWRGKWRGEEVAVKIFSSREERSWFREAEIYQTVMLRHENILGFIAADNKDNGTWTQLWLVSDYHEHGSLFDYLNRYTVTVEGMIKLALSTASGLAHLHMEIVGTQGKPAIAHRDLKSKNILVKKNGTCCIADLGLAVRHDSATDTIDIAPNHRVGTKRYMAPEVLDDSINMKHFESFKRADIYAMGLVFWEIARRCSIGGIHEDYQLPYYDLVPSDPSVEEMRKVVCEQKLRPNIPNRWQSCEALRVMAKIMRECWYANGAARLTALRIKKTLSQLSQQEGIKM
Chain of UniProt Q9UL54 (whole entry, looked up): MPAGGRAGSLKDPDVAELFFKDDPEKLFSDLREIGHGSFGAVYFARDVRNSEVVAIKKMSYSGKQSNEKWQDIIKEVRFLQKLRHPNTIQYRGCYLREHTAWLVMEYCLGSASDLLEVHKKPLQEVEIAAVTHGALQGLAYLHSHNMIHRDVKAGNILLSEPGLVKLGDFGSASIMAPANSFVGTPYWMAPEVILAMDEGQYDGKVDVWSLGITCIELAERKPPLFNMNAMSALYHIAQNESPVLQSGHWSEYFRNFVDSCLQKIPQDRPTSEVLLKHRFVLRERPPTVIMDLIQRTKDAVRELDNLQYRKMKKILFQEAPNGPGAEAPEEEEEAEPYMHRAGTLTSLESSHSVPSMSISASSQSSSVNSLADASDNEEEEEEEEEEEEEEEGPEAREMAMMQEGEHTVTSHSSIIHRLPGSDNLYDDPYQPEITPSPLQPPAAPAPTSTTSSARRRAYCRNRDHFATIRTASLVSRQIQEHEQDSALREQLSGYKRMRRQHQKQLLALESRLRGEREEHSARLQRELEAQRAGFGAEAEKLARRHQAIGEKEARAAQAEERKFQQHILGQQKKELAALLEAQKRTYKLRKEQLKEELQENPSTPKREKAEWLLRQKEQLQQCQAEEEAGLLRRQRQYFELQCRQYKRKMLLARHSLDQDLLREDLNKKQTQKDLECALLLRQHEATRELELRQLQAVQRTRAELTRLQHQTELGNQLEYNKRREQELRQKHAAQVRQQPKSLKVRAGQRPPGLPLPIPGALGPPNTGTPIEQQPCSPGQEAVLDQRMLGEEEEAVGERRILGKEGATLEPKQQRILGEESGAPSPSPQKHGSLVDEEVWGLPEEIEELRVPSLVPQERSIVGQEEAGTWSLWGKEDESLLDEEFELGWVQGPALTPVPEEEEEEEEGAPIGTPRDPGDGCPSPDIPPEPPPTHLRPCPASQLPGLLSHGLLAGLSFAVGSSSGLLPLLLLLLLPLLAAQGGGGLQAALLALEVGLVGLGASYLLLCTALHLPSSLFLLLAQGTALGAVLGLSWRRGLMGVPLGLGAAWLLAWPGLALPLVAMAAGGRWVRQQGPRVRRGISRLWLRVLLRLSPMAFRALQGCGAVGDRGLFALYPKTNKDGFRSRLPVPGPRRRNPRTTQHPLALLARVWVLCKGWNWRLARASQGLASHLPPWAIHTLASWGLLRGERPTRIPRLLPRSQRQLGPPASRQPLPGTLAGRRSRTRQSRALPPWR
Chain of UniProt Q15349 (whole entry, looked up): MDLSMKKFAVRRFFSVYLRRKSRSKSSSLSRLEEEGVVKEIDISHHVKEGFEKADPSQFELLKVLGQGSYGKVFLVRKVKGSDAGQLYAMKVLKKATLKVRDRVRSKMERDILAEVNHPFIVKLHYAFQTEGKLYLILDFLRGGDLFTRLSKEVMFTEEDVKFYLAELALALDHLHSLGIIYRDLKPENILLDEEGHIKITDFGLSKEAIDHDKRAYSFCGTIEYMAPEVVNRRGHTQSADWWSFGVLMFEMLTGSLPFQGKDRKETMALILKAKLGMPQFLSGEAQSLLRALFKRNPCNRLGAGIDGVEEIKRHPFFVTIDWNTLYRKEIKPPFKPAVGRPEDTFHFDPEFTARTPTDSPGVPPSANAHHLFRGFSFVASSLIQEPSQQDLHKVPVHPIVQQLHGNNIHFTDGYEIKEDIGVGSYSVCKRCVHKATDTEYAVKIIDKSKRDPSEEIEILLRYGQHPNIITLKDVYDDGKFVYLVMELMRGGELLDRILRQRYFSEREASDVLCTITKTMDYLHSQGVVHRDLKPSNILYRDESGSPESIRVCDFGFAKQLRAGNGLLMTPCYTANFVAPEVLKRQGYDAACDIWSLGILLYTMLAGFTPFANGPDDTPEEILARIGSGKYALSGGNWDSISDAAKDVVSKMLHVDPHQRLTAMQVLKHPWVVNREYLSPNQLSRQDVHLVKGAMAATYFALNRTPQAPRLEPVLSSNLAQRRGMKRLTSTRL
Chain of UniProt P51956 (whole entry, looked up): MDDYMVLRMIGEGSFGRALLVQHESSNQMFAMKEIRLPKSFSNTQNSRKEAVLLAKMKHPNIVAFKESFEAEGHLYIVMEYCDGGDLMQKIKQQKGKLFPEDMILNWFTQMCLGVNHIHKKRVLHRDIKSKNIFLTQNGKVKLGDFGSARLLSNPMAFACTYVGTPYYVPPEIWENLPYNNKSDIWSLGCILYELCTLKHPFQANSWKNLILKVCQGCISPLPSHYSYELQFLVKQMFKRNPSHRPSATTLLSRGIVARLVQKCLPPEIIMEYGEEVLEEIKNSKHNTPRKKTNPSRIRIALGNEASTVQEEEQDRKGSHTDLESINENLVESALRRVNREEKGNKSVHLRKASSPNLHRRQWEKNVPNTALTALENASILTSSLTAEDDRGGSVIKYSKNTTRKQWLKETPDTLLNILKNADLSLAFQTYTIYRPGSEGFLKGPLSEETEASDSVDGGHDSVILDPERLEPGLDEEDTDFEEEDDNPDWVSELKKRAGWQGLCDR
Chain of UniProt P51813 (whole entry, looked up): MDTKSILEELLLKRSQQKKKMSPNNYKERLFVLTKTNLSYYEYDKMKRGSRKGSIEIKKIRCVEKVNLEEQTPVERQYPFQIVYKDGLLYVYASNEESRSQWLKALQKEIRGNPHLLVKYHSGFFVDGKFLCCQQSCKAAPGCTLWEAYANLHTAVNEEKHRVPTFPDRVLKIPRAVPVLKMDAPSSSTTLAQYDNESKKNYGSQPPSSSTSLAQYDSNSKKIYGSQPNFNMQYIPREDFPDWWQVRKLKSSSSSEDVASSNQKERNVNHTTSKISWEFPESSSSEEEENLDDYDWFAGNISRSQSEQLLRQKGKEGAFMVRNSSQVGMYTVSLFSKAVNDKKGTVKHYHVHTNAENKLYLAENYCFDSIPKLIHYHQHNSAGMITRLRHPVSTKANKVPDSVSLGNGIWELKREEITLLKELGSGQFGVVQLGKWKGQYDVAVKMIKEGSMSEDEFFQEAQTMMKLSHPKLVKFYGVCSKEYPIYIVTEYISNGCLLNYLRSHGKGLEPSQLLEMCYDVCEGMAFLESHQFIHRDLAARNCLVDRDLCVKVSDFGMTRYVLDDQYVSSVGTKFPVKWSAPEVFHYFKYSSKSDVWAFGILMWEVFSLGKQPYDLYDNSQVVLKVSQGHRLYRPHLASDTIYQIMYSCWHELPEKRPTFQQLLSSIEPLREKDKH

Sample 1
SMILES: CC(C)(C)c1cc(C=C(C#N)C#N)cc(Br)c1O
Observed: enzyme activity
Mode: inhibitor
Tested at: 0.5 µM
TGF-beta receptor type-1 (TGFBR1, Homo sapiens, UniProt P36897) — remaining activity: 103%.
For Cytoplasmic tyrosine-protein kinase BMX (BMX, Homo sapiens, UniProt P51813): remaining activity read 113%.
For Serine/threonine-protein kinase TAO2 (TAOK2, Homo sapiens, UniProt Q9UL54); baseline: control: remaining activity read 96.5%.
Serine/threonine-protein kinase Nek3 (NEK3, Homo sapiens, UniProt P51956) — remaining activity: 96.6%.
Ribosomal protein S6 kinase alpha-2 (RPS6KA2, Homo sapiens, UniProt Q15349); baseline: control — remaining activity: 98.9%.

Sample 2
Target: Diamine acetyltransferase 1 (Homo sapiens, UniProt P21673)
Mode: inhibitor
Tested at: 10 µM
Baseline: control
Target sequence (P21673 1-171): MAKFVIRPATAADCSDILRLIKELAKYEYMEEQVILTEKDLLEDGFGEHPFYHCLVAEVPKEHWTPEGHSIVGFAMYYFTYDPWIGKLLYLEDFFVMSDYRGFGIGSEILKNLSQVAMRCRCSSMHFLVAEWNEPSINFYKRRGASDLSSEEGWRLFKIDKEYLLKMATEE
For `c1cc2c(cc1[C@H]1OC[C@H]3[C@@H]1CO[C@H]3c1ccc3c(c1)OCO3)OCO2`, the remaining activity was 106%.
`COc1cc2ccc(=O)oc2c2ccoc12` gave a remaining activity of 86.6%.
With `CCCCC(CC)COC(=O)c1ccccc1C(=O)OCC(CC)CCCC` (stereo not shown) the remaining activity was 114%.
The remaining activity of `CN(C)Cc1c[nH]c2ccccc12` is reported as 106%.
The remaining activity of `C=C[C@H]1[C@H](O[C@@H]2O[C@H](CO)[C@@H](O)[C@H](O)[C@H]2O)OC=C2C(=O)OCC[C@H]21` is reported as 96.3%.

Sample 3
Cell line: mouse MPNST tumor cells
Technique: high-content nuclear imaging
Item: cell number
Tested at: 10 µM
Time: 12 h
Notes: mean of 2 replicates
Baseline: plate mean
Direction: higher = more cells
`CCP(=O)(O)CCCN` gave a nuclei count of 0.816 z-score.
`O=C1NC(=O)c2c1c1c3ccccc3n3c1c1c2c2ccccc2n1[C@H]1CC[C@@H]3O1` has a nuclei count of -1.8 z-score.
`C[C@]12CCC(=O)C=C1C=C[C@@H]1[C@@H]2CC[C@@]2(C)[C@H]1CC[C@@]2(O)CCC(=O)O` gave a nuclei count of -1.13 z-score.
For `Cc1nnc2n1-c1sc(CCC(=O)N3CCOCC3)cc1C(c1ccccc1Cl)=NC2`, the nuclei count was 1.35 z-score.
`NCCc1c[nH]c2ccc(O)cc12` has a nuclei count of -0.694 z-score.
With `CC(=O)OCC1=C(C(=O)O)N2C(=O)C(N)C2SC1` (stereo not shown) the nuclei count was -0.246 z-score.
`CC(C)(Cc1c[nH]c2ccc(Cl)cc12)NCCOc1ccccc1OCC1CC1` has a nuclei count of -5.74 z-score.
With `CN(C)C(=O)Oc1ccc[n+](C)c1` the nuclei count was 0.254 z-score and 0.604 z-score.

Sample 4
Cell line: HEK-293T-ACE2-TMPRSS2
Technique: cell count
Tested at: 10 µM
The viability of `Oc1ccc2ccccc2c1N=Nc1ccccn1` is reported as 65%.
`COc1ccc(F)c(-c2ccccc2OC(C)C(N)=O)c1` (stereo not shown) has a viability of 65%.
The viability of `CC(C)c1nccn1CCCn1cnc(-c2ccccc2)c1-c1cnn(C)c1` is reported as 76%.
With `Cc1noc([C@@H]2CN(C(=O)c3ccnn3C)C[C@H]2COCC2CC2)n1` the viability was 96%.
`CCOc1ccc(CCNc2ncnc3sc(CC)cc23)cc1OCC` gave a viability of 72%.
For `CC(C)CN1CCOC(CNC(=O)Cn2ncc(Br)c(Br)c2=O)C1` (stereo not shown), the viability was 73%.
`CN1CCN(Cc2c(O)ccc3cc(-c4ccc(F)cc4)c(=O)oc23)CC1` gave a viability of 66%.
`COc1ccc(NC(=O)Cn2ccc3c(=O)[nH]ccc32)cc1` gave a viability of 104%.
For `CN1CCN(Cc2c(O)ccc3cc(-c4nc5ccccc5[nH]4)c(=O)oc23)CC1`, the viability was 66%.
For `CN(C)c1nc2sc(C(=O)N(Cc3ccco3)C3CC3)cc2s1`, the viability was 76%.
`Cc1c(OC(=O)c2cccs2)ccc2c3c(c(=O)oc12)CCCC3` has a viability of 69%.
With `COC1=C2C[C@@H](C)C[C@H](OC)[C@H](O)[C@@H](C)/C=C(\C)[C@H](OC(N)=O)[C@@H](OC)/C=C\C=C(/C)C(=O)NC(=CC1=O)C2=O` the viability was 78%.
For `O=C(NC1CC(=O)N(Cc2ccccc2Cl)C1)c1cc2ccccc2o1` (stereo not shown), the viability was 105%.
`CN(C)S(=O)(=O)c1cccc(Cn2ncc(Cl)c(Cl)c2=O)c1` gave a viability of 78%.
`O=C1C(=Cc2cccc(O)c2)CSC/C1=C/c1cccc(O)c1` gave a viability of 71%.
With `O=C(OCc1cc(Cl)cc2c1OCOC2)c1ccc2c(c1)S(=O)(=O)N=C1CCCCCN12` the viability was 70%.

Excerpt of the above (sample 2):
With `CCCCC(CC)COC(=O)c1ccccc1C(=O)OCC(CC)CCCC` (stereo not shown) the remaining activity was 114%.
The remaining activity of `CN(C)Cc1c[nH]c2ccccc12` is reported as 106%.
